Assay results of several laboratories.
Every numbered part comes from another study and shows a few of its results, in no order.
Sequence of UniProt P49137 (whole entry, looked up): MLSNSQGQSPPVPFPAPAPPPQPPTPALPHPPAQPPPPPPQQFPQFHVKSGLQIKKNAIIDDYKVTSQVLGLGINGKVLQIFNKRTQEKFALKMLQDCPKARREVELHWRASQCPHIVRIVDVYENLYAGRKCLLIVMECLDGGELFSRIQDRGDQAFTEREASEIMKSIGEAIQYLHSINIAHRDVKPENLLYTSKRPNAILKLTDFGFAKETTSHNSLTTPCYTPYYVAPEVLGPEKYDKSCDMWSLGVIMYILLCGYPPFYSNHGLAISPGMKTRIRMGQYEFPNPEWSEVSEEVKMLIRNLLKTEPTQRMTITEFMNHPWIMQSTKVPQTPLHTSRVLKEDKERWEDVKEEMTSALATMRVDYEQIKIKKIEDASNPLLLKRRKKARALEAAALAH
Sequence of UniProt Q5XXA6 (whole entry, unmodified, looked up): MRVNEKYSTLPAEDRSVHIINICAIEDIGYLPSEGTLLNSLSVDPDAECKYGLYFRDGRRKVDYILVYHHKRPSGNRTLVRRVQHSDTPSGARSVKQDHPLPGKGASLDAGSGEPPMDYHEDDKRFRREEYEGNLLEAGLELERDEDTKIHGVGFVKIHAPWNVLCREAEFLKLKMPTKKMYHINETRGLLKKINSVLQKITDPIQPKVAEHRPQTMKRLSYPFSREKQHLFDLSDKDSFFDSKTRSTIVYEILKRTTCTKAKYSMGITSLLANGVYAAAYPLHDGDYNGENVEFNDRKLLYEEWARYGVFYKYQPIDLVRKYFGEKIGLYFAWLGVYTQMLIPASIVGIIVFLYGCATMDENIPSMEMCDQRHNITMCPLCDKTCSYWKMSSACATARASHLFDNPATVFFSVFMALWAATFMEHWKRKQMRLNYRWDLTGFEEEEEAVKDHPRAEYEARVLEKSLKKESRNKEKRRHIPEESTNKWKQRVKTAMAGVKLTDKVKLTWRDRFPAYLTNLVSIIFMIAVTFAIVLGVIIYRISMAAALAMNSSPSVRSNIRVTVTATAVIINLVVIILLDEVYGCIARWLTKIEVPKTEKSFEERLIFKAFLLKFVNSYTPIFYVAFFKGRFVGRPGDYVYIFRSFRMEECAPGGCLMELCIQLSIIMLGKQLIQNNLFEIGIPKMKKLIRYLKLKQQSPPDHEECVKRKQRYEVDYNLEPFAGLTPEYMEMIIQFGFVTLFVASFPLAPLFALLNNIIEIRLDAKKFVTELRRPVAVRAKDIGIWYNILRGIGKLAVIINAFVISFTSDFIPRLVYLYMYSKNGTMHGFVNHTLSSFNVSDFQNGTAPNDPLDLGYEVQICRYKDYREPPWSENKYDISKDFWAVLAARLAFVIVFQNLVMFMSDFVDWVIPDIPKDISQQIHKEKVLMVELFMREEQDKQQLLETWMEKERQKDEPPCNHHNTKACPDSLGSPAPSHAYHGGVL
Sequence of UniProt O00329 (whole entry, looked up): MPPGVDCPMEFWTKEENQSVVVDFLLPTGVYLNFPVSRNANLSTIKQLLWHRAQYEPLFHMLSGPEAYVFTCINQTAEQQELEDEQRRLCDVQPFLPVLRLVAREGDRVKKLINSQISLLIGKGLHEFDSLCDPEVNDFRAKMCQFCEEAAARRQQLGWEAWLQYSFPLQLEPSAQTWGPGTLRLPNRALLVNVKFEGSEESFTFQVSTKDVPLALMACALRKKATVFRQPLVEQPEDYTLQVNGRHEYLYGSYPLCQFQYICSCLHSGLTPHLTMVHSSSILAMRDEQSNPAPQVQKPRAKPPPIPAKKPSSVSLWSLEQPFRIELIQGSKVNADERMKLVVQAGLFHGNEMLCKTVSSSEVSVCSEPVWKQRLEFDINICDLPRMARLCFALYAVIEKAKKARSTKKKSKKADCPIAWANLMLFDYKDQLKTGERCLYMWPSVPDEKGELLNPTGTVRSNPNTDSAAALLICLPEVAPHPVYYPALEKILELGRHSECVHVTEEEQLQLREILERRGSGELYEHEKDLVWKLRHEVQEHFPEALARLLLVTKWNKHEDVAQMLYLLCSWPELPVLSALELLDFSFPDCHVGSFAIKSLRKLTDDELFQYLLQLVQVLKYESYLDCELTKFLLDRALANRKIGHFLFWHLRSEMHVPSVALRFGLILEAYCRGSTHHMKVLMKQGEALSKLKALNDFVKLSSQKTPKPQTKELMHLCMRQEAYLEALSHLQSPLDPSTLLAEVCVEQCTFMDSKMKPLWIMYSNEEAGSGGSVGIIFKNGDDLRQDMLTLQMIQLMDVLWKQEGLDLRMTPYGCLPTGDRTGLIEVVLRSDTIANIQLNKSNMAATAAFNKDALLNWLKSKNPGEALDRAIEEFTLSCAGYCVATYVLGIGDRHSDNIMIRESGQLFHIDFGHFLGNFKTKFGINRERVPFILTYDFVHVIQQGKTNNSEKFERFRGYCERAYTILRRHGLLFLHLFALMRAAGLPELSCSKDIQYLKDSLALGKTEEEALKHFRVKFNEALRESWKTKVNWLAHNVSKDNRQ
Sequence of UniProt Q6P2M8 (whole entry, looked up): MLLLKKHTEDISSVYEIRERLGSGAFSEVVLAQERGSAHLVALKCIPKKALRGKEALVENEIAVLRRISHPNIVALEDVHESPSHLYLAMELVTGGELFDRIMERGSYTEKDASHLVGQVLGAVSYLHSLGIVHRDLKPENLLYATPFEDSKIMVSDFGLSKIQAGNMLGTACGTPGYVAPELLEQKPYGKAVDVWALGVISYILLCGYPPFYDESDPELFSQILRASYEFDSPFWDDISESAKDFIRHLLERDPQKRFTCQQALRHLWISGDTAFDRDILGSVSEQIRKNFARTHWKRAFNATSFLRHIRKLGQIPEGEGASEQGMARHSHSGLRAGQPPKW
Sequence of UniProt P29597 (whole entry, looked up): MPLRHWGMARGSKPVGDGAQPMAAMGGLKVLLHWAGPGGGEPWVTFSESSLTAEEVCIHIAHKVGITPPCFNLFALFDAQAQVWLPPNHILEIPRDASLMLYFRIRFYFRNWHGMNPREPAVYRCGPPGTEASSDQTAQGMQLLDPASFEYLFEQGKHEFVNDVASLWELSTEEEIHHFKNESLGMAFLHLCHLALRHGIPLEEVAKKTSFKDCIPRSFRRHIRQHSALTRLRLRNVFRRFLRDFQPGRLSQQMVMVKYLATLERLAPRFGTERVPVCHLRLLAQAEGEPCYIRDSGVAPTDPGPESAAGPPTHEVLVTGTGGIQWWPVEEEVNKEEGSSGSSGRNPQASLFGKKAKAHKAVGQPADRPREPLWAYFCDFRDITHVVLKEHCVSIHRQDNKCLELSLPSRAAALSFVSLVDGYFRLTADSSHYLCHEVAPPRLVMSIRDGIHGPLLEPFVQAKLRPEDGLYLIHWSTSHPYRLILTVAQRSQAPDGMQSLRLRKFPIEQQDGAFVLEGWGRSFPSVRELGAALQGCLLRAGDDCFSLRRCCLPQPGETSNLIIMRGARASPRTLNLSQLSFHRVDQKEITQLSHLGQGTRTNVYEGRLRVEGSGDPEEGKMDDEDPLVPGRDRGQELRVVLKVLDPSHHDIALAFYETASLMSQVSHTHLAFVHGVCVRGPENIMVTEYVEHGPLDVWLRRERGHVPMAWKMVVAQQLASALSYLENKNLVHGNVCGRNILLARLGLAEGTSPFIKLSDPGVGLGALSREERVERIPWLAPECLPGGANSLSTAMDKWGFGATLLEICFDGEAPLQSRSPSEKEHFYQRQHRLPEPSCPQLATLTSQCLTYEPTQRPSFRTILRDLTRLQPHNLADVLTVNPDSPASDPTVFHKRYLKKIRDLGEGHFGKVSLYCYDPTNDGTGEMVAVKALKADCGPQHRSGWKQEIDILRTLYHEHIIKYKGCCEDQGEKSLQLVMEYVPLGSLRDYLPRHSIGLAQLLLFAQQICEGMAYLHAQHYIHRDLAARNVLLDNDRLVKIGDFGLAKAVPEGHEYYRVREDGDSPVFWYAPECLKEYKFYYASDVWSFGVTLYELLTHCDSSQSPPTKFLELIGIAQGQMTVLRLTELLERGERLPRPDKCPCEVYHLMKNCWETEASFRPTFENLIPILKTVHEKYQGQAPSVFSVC

Series 1 — organism: Sarcocystis neurona; read-out: parasite activity; concentration: 10 µM; time: 96 h
| SMILES | activity class |
| --- | --- |
| COC(=O)CCc1ccc(OCC(O)CNC(C)C)cc1 (stereo not shown) | inactive |
| NC(=O)c1cnccn1 | inactive |
| Cc1nccn1CC1CCc2c(c3ccccc3n2C)C1=O (stereo not shown) | inactive |
| OCCN(CCO)c1nc(N2CCCCC2)c2nc(N(CCO)CCO)nc(N3CCCCC3)c2n1 | inactive |
| CNC(=C[N+](=O)[O-])NCCSCc1csc(CN(C)C)n1 | inactive |
| CC[C@@]1(O)C(=O)OCc2c1cc1n(c2=O)Cc2cc3c(CN(C)C)c(O)ccc3nc2-1 | inactive |

Series 2 — species: mouse; matrix: microsomes or S9; concentration: 2 µM; time: 0.5 h
| SMILES | remaining compound [%] |
| --- | --- |
| CCCc1nc(C)c2c(Cl)nc3ccc(OC)nc3n12 | 0.83 |
| O=C(O)c1cc2ccc(Cl)c(Cl)c2[nH]c1=O | 54.5 |
| Cc1nn(-c2ccc(Cl)cc2)c2[nH]c(=O)c(CNCC3CCCO3)cc12 (stereo not shown) | 81.5 |
| CC(C)c1c(Cl)nc(NCCO)nc1N1CCN(C(=O)CO)CC1 | 95.9 |

Series 3 — read-out: cell-free assay; method: competition with immobilised ligand; concentration: 0.1 µM
Structure (SMILES): C[C@@H]1CN(c2cc(-c3n[nH]c4ccc(OC5(C)CC5)cc34)ncn2)C[C@H](C)O1
| target | remaining binding |
| --- | --- |
| MAPKAPK2 (Homo sapiens, UniProt P49137) | 96% |
| PNCK (Homo sapiens, UniProt Q6P2M8) | 67% |
| Non-receptor tyrosine-protein kinase TYK2, JH2 (TYK2, Homo sapiens, UniProt P29597) | 76% |
| PIK3CD (Homo sapiens, UniProt O00329) | 68% |

Series 4 — read-out: enzyme activity; action: inhibitor; concentration: 0.5 µM; reference: control
Target: Serine/threonine-protein kinase TBK1 (TBK1, Homo sapiens, UniProt Q9UHD2)
Sequence of UniProt Q9UHD2 (whole entry, looked up): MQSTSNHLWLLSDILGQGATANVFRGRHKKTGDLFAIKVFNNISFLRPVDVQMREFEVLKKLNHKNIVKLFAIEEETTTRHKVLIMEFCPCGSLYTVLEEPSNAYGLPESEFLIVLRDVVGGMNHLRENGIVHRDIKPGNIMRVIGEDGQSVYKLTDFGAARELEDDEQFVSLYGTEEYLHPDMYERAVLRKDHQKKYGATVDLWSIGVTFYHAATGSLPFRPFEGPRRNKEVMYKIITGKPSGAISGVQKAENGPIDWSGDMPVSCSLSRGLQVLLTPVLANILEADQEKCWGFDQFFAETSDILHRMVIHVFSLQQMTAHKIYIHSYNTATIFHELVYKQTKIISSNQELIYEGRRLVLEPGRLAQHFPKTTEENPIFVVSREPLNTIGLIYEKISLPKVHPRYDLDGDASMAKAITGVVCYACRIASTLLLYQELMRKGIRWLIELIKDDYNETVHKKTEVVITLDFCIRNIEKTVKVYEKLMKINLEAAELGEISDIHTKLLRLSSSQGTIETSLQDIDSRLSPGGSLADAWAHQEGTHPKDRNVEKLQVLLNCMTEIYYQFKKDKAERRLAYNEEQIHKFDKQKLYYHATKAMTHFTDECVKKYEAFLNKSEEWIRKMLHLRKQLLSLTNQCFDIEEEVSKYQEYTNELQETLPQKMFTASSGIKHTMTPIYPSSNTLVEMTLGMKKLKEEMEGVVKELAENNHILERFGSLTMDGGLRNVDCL
| Structure (SMILES) | remaining activity [%] |
| --- | --- |
| O=C1NC(=O)C(c2cn(CCCO)c3ncccc23)=C1c1cnccn1 | 98.8 |
| C#Cc1cccc(Nc2ncnc3cc(OCCOC)c(OCCOC)cc23)c1 | 73 |
| Nc1[nH]nc2nc3ccccc3nc12 | 92 |
| OCC(O)CCON=C1C(c2c(O)[nH]c3ccccc23)=Nc2ccccc21 (stereo not shown) | 29.9 |
| O=C(O)c1ccc2c3c1cccc3c(=O)n1c3ccccc3nc21 | 20.2 |
| Oc1ccc(-c2nc(-c3ccncc3)c(-c3ccc(F)cc3)[nH]2)cc1 | 95.2 |
| Cn1sc(=O)n(Cc2ccccc2)c1=O | 102 |
| COc1ccc(C(=O)Nc2sc3c(c2C(N)=O)CCCC3)cc1OC | 102 |
| Cc1ccc(NC(=O)c2ccc(CN3CCN(C)CC3)cc2)cc1Nc1nc(-c2cccnc2)cs1 | 97 |
| Cc1ccc(Nc2nccc(N(C)c3ccc4c(C)n(C)nc4c3)n2)cc1S(N)(=O)=O | 99.5 |
| Cn1c2ccccc2c2c3c(c4c5ccccc5n(CCC#N)c4c21)CNC3=O | 72.1 |
| COc1cc2ncnc(Nc3ccc(F)c(Cl)c3)c2cc1OCCCN1CCOCC1 | 83.1 |
| O=C(Nc1cccc(Nc2cc(Nc3cccc(C(F)(F)F)c3)ncn2)c1)C1CC1 | 99 |
| O=C1NC(=O)C(c2cn(CCCn3ccnc3)c3ccccc23)=C1Nc1ccccc1 | 48 |

Other studies, line by line
| Compound | target or system | test | test system | conditions | how to read | measurement | value |
| --- | --- | --- | --- | --- | --- | --- | --- |
| Cc1cc2c(C(N)=O)c(N)n(-c3c(C)ccc(O)c3C)c2nc1C | ABL1 phosphorylated human | KINOMEscan | – | 1000 nM | reference: control | binding remaining | 0.1% |
| CC(C)n1cnc(-c2ccc(F)cc2)c1-c1ncc(C(=O)Nc2ccc(N3CCN(C)CC3)cc2)[nH]1 | – | phase 2a clinical trial | patients with idiopathic pulmonary fibrosis | 60 mg once daily, without standard of care | – | patients with AST increase | 0% |
| C=CCc1ccc(O)c(-c2cc(CC=C)ccc2O)c1 | Anoctamin-1 (ANO1, Homo sapiens, UniProt Q5XXA6, del476-501) | chloride current, inhibitor, whole-cell voltage clamp | – | 10 µM, wild type, together with: 300 nM Ca2+ | reference: maximum | remaining current | ~70% |
